Results of several laboratories.
Lines come from different studies, so protocols differ. “And” joins repeats or separate records; there may be more than shown.
Cell line: NCI-H460

| SMILES | test | setting | IC50 |
| --- | --- | --- | --- |
| COc1cc(S(=O)(=O)Oc2ccc3[nH]c(C)cc3c2)cc(OC)c1OC | cell growth or viability | 72 h | 0.00796 µM |
| CCCCCCCCCCCCCCCCCC(=O)[O][Pt-2]1([OH])([Cl])([NH+]=C(CC)N(C)CCNc2c3ccccc3[nH+]c3ccccc23)[NH]CCC[NH]1.O=[N+]([O-])O.O=[N+]([O-])O | cell growth or viability, MTS | 72 h | 0.0356 µM |
| CO[C@@H]1[C@@H](OC(=O)c2ccc(C)[nH]2)[C@@H](O)[C@H](Oc2ccc3c(O)c(NC(=O)c4c[nH]c(C(=O)Nc5c(O)c6ccc(O[C@@H]7OC(C)(C)[C@H](OC)[C@@H](OC(=O)c8ccc(C)[nH]8)[C@H]7O)c(C)c6oc5=O)c4C)c(=O)oc3c2C)OC1(C)C | cell growth or viability, ATP luminescence | 72 h | ~3.7 µM |
| Cc1ccc2c(c1C#Cc1ccc(O)cc1)C(c1ccc(O)cc1)(c1ccc(O)cc1)c1cc(O)ccc1-2 | cell growth or viability, MTT | 48 h | 10.6 µM |
| CCC(=[NH+][Pt-2]1([Cl])([O]C(=O)CC(C)C)([O]C(=O)CC(C)C)[NH]CCC[NH]1)N(C)CCNc1c2ccccc2[nH+]c2ccccc12.O=[N+]([O-])O.O=[N+]([O-])O | cell proliferation, MTS | 72 h | < 0.01 µM and 0.0053 µM |
| COC(OC)c1ccc(-c2ccc(O)cc2)c(C(=C2C=CC(=O)C=C2)c2ccc(O)cc2)c1C#Cc1ccc(O)cc1 | cell growth or viability, MTT | 48 h | > 50 µM |
| CNS(=O)(=O)Nc1nccc(Cc2c(C)c3ccc(Oc4ncccc4F)cc3oc2=O)c1F | cell viability | 7 days | > 1 µM |
| CC(=O)OC[C@H]1O[C@@H](Oc2ccc(C#[C][Pt+])cc2)[C@H](OC(C)=O)[C@@H](OC(C)=O)[C@@H]1OC(C)=O.O=S(=O)([O-])C(F)(F)F.c1ccc(-c2cccc(-c3ccccn3)n2)nc1 | cell growth or viability | 48 h | 97.4 µM |
| Oc1ccc(C#Cc2cccc3c2C(c2ccc(O)cc2)(c2ccc(O)cc2)c2cc(O)ccc2-3)cc1 | cell growth or viability, MTT | 48 h | 11.7 µM |
| O=C(NCc1cc(F)cc(F)c1)[C@@]1(O)CCN(c2ccc3[nH]ccc3c2)C1=O | cell growth or viability | – | 5.8 µM |
| CCC(=[NH+][Pt-2]1([OH])([OH])([Cl])[NH]CCC[NH]1)N(C)CCNc1c2ccccc2[nH+]c2ccccc12.O=[N+]([O-])O.O=[N+]([O-])O | cell growth or viability, MTS | 72 h | 0.0213 µM |
| O=C(O)c1ccc(-c2ccc(O)cc2)c2c1C=C(c1ccc(O)cc1)OC2(c1ccc(O)cc1)c1ccc(O)cc1 | cell growth or viability, MTT | 48 h | 7.02 µM |

Excerpt of the above:
| SMILES | test | setting | IC50 |
| --- | --- | --- | --- |
| CCC(=[NH+][Pt-2]1([Cl])([O]C(=O)CC(C)C)([O]C(=O)CC(C)C)[NH]CCC[NH]1)N(C)CCNc1c2ccccc2[nH+]c2ccccc12.O=[N+]([O-])O.O=[N+]([O-])O | cell proliferation, MTS | 72 h | < 0.01 µM and 0.0053 µM |
| COC(OC)c1ccc(-c2ccc(O)cc2)c(C(=C2C=CC(=O)C=C2)c2ccc(O)cc2)c1C#Cc1ccc(O)cc1 | cell growth or viability, MTT | 48 h | > 50 µM |
